Experimental data pooled from the literature.
Lines come from different studies, so protocols differ. ± gives the spread as reported.

SMILES	tested on	assay	system	conditions	how to read	measurement	value
C=CC(=O)Nc1cccc(Cn2ncc3cnc(Nc4cnn(CCOC)c4)nc32)c1	PRKG1 human	binding, KINOMEscan	–	100 nM	lower = stronger binding	percent of control	100%
CC(C)c1ccc(N(C)c2ccc3c(c2)OCC[C@H]3CNc2cnccc2C(=O)O)cc1	LOUCY	cell viability, CellTiter-Glo	–	7 days	–	IC50	2.47 nM
C=C(NC(=O)c1csc(-c2nc3c(cc2O)-c2nc(cs2)C(=O)NC(C(C)O)C(=O)NC(=C(C)OC)c2nc(cs2)C(=O)NC2c4nc(cs4)C(=O)NC(COC(=O)c4c5c6c(cccc6n4O)COC(=O)C(OC4CC(C)(O)C(N(C)C)C(C)O4)C2OC5)c2nc-3cs2)n1)C(N)=O (centres unmarked)	Staphylococcus aureus	–	ATCC 43300 MRSA	2 x MIC, 1 h exposure	–	post-antibiotic effect	1.09 ± 0.14 h
Cn1ncc2cc(-c3cncc(Cl)c3N3CCC4(CCNC4=O)CC3)ccc21	LS174T	gene expression, microarray, refers to: IGLL1 mRNA	–	concentration not given, 4 h	relative to: untreated cells	log2 fold change	1.01
CNS(=O)(=O)Nc1nccc(Cc2c(C)c3ccc(Oc4ncccc4F)cc3oc2=O)c1F	SNG-M	cell viability, CellTiter-Glo	–	7 days	–	IC50	238 nM
Cc1ncsc1-c1ccc(C(C)NC(=O)C2CC(O)CN2C(=O)C(NC(=O)CCCCCCCCCCN2CCCC(Nc3ncc(Cl)c(Nc4ccccc4S(=O)(=O)C(C)C)n3)C2)C(C)(C)C)cc1 (centres unmarked)	22Rv1	RNA-seq, refers to: ST3GAL1 mRNA	–	concentration not given	relative to: DMSO	log2 fold change	-2.03
C=CC(=O)N1[C@@H](c2ccc3c(c2)OCO3)c2[nH]c3ccccc3c2C[C@H]1C(=O)N1CCN(C)CC1	human cyclin E1 N112C-3xFLAG:CDK2	co-IP with TMT proteomics, refers to: SAMHD1	–	concentration not given, Q9Y3Z3	relative to: wild type DMSO	relative co-enrichment	79%
COC1CN([C@H]2CC[C@H]([C@@]3(C)Oc4c(Cl)cc(C(=O)NCc5c(SC)cc(C)[nH]c5=O)c(C)c4O3)CC2)C1	–	RNA-seq, refers to: PRDM16	human, whole blood	dose not given, 24 h	relative to: pretreatment baseline	log2 fold change	2.7
CN1CCCNC(=O)c2cccc(c2)C(=O)NCCCN(C)CCCNc2cccc3c2C(=O)c2cccc(c2C3=O)NCCC1	SAS	RNA-Seq, refers to: MDC1 mRNA	–	1 µM, 6 h	relative to: untreated cells	log2 fold change	1.15
CCN(CC)CC(=O)Nc1cccc(-n2cc(-c3ccc4ccc(-c5cn(-c6cccc(NC(=O)CN(CC)CC)c6)nn5)cc4c3)nn2)c1	RCC4	PCR angiogenesis array, refers to: SPHK1	–	5 x IC50, 6 h, normoxia	relative to: untreated	fold regulation	-1.44
Nc1ncc(-c2cc(-c3cnn(CC(F)(F)F)c3)ncc2F)nc1C(=O)NC1CNCC(F)C1 (centres unmarked)	BMPR1B	KINOMEscan	–	1 µM	relative to: DMSO control	remaining binding	59%
